Published values collected from several papers.
Parts stem from different laboratories: compare values within a part only.
UniProt Q9Y572, sequence (whole entry, looked up): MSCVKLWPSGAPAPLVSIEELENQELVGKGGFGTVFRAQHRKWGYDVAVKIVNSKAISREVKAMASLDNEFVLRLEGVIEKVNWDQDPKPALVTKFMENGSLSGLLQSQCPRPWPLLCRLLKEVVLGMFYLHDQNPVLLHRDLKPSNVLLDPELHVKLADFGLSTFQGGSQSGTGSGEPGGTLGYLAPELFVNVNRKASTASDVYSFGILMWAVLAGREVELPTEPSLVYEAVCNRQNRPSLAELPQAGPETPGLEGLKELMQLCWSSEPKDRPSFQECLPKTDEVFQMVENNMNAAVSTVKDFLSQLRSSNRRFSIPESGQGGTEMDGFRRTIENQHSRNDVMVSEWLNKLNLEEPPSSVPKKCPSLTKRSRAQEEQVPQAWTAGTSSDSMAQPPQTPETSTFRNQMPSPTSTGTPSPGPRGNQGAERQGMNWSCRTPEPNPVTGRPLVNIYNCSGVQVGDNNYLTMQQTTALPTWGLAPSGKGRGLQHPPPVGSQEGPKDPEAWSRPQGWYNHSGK
UniProt Q5XXA6, sequence (whole entry, unmodified, looked up): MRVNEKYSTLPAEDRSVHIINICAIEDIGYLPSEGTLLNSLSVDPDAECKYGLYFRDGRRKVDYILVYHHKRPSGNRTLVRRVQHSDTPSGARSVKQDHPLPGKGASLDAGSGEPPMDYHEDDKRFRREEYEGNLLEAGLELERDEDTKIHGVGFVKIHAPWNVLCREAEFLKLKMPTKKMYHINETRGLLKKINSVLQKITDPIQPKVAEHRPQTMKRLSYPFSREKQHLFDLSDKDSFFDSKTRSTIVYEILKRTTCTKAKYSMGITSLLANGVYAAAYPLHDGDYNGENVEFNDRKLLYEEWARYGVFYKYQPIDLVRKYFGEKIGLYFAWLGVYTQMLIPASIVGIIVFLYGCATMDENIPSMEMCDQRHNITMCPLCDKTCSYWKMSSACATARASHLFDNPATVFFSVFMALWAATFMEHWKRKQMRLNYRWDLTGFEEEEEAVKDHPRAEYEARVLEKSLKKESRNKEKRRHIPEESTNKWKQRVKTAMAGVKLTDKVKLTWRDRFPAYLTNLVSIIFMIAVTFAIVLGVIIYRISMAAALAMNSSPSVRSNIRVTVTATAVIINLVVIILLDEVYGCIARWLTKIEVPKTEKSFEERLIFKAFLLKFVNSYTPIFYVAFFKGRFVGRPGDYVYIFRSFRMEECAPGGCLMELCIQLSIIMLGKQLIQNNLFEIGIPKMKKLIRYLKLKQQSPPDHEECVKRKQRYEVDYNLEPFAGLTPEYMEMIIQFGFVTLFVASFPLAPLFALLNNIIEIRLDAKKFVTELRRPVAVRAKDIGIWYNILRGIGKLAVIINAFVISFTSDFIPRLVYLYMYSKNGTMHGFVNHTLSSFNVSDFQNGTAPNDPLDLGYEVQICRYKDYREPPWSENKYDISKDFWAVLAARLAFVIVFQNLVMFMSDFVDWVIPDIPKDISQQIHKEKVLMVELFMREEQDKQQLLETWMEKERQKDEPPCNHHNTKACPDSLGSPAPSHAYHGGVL

Series 1 — technique: aptamer microarray, sandwich; molecule type: DNA with 2'F-ANA; medium: in vitro; concentration: 200 nM; together with: Cy3 exosite-II aptamer, 400 nM; direction: higher = stronger binding; strand: GGTTGGTGTGGTTGG
Target: Prothrombin, mature alpha-thrombin (F2, Homo sapiens, UniProt P00734)
Notes: whole 15-mer aptamer, many near background
For `2'F-ANA at 1 2 3 5 7 12 13 14`, “mean fluorescence intensity” read 56.7 a.u.
Under “mean fluorescence intensity”, `2'F-ANA at 5 7 10 12 13 15` is recorded as 50.4 a.u.
`2'F-ANA at 3 5 8 9 11 13 14 15` — result for “mean fluorescence intensity”: 68.9 a.u.
Under “mean fluorescence intensity”, `2'F-ANA at 2 10 11 13 15` is recorded as 106 a.u.
For `2'F-ANA at 2 4 5 6 8 11 13 14 15`, “mean fluorescence intensity” read 50.1 a.u.
`2'F-ANA at 2 3 7 8 12 14`: “mean fluorescence intensity” 733 a.u.
For `2'F-ANA at 3 5 9 10 11 12 13 15`, “mean fluorescence intensity” read 69.8 a.u.
`2'F-ANA at 1 4 7 11 15` — result for “mean fluorescence intensity”: 111 a.u.

Series 2 — technique: RNA Bind-n-Seq; molecule type: RNA; medium: in vitro; concentration: not given; notes: 4-mer, random 30-nt RNA, single round; together with: RocA, ADP, phosphate; reference: input library; direction: higher = stronger binding
Target: Eukaryotic initiation factor 4A-I (EIF4A1, Homo sapiens, UniProt P60842, residues 1-406, full length assumed)
UniProt P60842, sequence (whole entry, looked up): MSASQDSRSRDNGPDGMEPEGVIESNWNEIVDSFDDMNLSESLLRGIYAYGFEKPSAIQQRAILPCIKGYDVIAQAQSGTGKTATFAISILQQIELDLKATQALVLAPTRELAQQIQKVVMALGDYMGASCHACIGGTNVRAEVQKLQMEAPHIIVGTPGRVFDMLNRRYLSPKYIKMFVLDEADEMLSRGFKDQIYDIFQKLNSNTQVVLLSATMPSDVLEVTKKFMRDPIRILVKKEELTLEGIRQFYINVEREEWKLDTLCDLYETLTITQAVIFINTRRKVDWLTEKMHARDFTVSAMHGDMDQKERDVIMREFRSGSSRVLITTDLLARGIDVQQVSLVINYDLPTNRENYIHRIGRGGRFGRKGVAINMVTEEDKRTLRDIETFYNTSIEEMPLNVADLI
`GAGG` gave a 4-mer enrichment of 2.07 fold.
With `AUUA` the 4-mer enrichment was 0.947 fold.
For `UGCU`, the 4-mer enrichment was 0.623 fold.
For `CAUA`, the 4-mer enrichment was 0.747 fold.
The 4-mer enrichment of `ACUA` is reported as 0.694 fold.
For `GUUU`, the 4-mer enrichment was 1.14 fold.
With `UCCA` the 4-mer enrichment was 0.58 fold.
`UCUU` gave a 4-mer enrichment of 0.586 fold.

Further values, each from its own experiment
The Hill slope of `C=CCc1ccc(O)c(-c2cc(CC=C)ccc2O)c1` is reported as 0.79 (Anoctamin-1 (ANO1, Homo sapiens, UniProt Q5XXA6, del476-501); chloride current, inhibitor, whole-cell voltage clamp; wild type at 100 mV, together with: 300 nM Ca2+).
`CC(C)S(=O)(=O)c1ccc2nccc(Nc3ccc4sc(C5CCCC5)nc4c3)c2c1` has an inhibition of 98.5% (Receptor-interacting serine/threonine-protein kinase 3 (RIPK3, Homo sapiens, UniProt Q9Y572); kinase activity, inhibitor, ADP-Glo; 100 nM, 1 h).
The remaining compound of `CCOc1ccc(S(=O)(=O)N2CCC3(CC2)Nc2ccccc2-n2cccc23)cc1` is reported as 0.303% (mouse, microsomes or S9; 2 µM, 0.5 h).

Excerpt of the above (series 1):
For `2'F-ANA at 2 4 5 6 8 11 13 14 15`, “mean fluorescence intensity” read 50.1 a.u.
`2'F-ANA at 2 3 7 8 12 14`: “mean fluorescence intensity” 733 a.u.
For `2'F-ANA at 3 5 9 10 11 12 13 15`, “mean fluorescence intensity” read 69.8 a.u.
